Published values pooled from the literature.
A part holds a random share of what one study measured.

Block 1
Target: RNA binding protein fox-1 homolog 2, RRM domain, GST-SBP tag (RBFOX2, Homo sapiens, UniProt O43251-10, residues 100-194)
Technique: RNA Bind-n-Seq
Form: RNA
Sample: in vitro
Concentration: 365 nM
Notes: natural RNA segment, single round, ends assumed
Reference: no-protein control
Reading: higher = stronger binding
Shared flanks, not repeated: GGGAGUUCUACAGUCCGACGAUC … UGGAAUUCUCGGGUGCCAA
Residues (chain): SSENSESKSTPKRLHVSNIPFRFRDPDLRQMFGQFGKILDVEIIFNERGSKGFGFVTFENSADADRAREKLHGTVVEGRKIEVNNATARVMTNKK
`AGAAGGCAGGAAGUCCUACACCAUAGUUAGAUGAACCUAACUGUACCUGGAAGUUGCCCAUUUAACUAAUUAUUCUGUCCUGUGACUGUCAUCCUUCCAGUUGUUGUGUA` — result for “RBNS enrichment (R)”: 0.501.
For `AACAAACAUGACCCUAAAUCUUGACUACAGUCAGGAAAGGAAUCAUUUCUAUUUCUCCUCCAUGGGAGAAAAUAGAUAAGAGUAGAAACUGCAGGGAAAAUUAUUUGCAU`, “RBNS enrichment (R)” read 0.499.
For `AAGAAAAUAUUUUUGUCAAUUCUUAUUCUUUUAUAAUUAUGUGGUAUGUAGACUCAUUAAACAAUUCAAAUGAAAGUGGUGCCGCAGUGAGGCUCCUUCUCAAGUGGUGU`, “RBNS enrichment (R)” read 0.417.
`GGUUUCAGUACAUUGGCUUUUACAUCAAAAACUAACAGGGCACAGUUUGACCUGUUUAGUGUAUUCUGGGCCGAGUCUCUGAAGCAGGAGCAGAGCACACUCCCGGGAUU`: “RBNS enrichment (R)” 0.356.
For `ACCUCUGUGCAAACAUUGUAGACUUCUUAUUGCUACUCAAUUCUUGCUACUGCUCAUGAUUCAAAUGUCUACCACAAUCUGAAUUGGGAUGUUGACAUUUUGUGGUUAUU`, “RBNS enrichment (R)” read 2.12.
Under “RBNS enrichment (R)”, `CCCUCCUUCUGUAGAGGCCGCCUGCCAGCCAUGCACCUGCGUCAACGCGCCUGAAACACCCCGCGGGCCUCCCGUUGUCAUGCCUUACGGUUUCCAAUGCGCCGUCACCA` is recorded as 0.694.
`AUUGCCACAAUCUCUGGAUGGUUUUCCAGGGUUGUGUUAUUACUGAGCUUCAUCUUUCCAGAAUGAGCAAAACACUGUCCAGUCUUUGUUACGAUUUUGUAAUAAAUGUG` — result for “RBNS enrichment (R)”: 0.276.
`UUUGCUUAAUUCCUCAGGCUUUGCGAUUUAAGGAGGAGCUGCCUUAAAAAAAAAUAAAGGCCUUAUUUUGCAAUUAUGGGAGUAAACAAUAGUCUAGAGAAGCAUUUGGU` — result for “RBNS enrichment (R)”: 3.15.

Block 2
Target: RING finger protein unkempt homolog, zinc fingers 1-6, SBP tag (UNK, Homo sapiens, UniProt Q9C0B0, residues 30-357)
Chain of UniProt Q9C0B0 (30-357, looked up): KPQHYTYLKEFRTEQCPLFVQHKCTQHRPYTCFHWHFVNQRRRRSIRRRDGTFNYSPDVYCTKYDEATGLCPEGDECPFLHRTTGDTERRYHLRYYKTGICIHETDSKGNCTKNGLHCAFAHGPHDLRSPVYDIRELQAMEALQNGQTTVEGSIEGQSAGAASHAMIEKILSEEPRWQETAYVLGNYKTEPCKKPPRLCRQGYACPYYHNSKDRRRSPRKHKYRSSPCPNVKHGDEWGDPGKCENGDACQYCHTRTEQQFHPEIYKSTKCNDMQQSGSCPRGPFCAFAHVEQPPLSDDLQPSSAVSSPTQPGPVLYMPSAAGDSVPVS
Technique: RNA Bind-n-Seq
Form: RNA
Sample: in vitro
Concentration: 100 nM
Notes: RNA with constant flanks, vertebrate orthologous sites, ends assumed
Reference: input RNA pool
Reading: higher = stronger binding
Shared flanks, not repeated: GGGAGUUCUACAGUCCGACGAUC … CAACAGAGGAUUGAGCAUCA
For `UCCUAGCACUUUGAUAAAAAGUGUGGACUGGUUGCUUGUGUUUUCCUUAUUCUUUUUAAUCAGUUUUAUUAUGUAUGCCACCAUUCGAACUGAGAGUAUUCGGUGGCUAAUUCCAGGACA`, the bound/input enrichment was 0.966 ratio.
`AGGAAAUGCUGGCUGCAAACCCUCAGGAUCGUCCAGAUGCUUUUGAACUAGAACUCAGAUUAGUACAAAUUGCAUUUAAAGACAGCAGCUGGGAAACGUGACACAUAUAUUAUUUGCAAA` gave a bound/input enrichment of 0.898 ratio.
`GCCUACAAUAAUGAAAACUUACAGGAAUUUUUUUAUUUUUCAUUUCCCCUUAGGCAUACUUAGUCUUUUCCCCCAGGCAGAUGAUUCUGAGUGUGCGAGUGUGUGCACAUGUUACAGACA` has a bound/input enrichment of 0.666 ratio.
With `AGCAACUCAGGGGUUCAGGACUGGUUAUACCAACAUGCCAAGUAGAUUUGGAACCAGUAAUAACAGAAUUGGACAACCAAGACCAUGAUGUACAGUAACUUGAUUUUUAUGAAGCAUAUU` the bound/input enrichment was 0.381 ratio.
`GGAACCUAUUCGCCACUCCCGAUGCGUGCCUGGGGUGAAGCAUCCACCAGCACUGCGAGGGGGUCCAUAGUAUUUUGUUGGCUGCCUCAGAGUCCCCAAAGCCUUCAAGCAGACAUGGCA` gave a bound/input enrichment of 0.484 ratio.
`ACAGCCCUCUUCUUAAGCUGGUGUUUUCACACACUAGGAAGCUAUUAUUGUUUUUCACAGUCUAGUACCUGGUUUUUACAUGGAAGACUAAACUCAUGCUUAUAGCUAAAUGUGGUCUUU` has a bound/input enrichment of 0.472 ratio.
`GUGCAAGGAGAUUAUUCCAACUAGUGAAUUUAUUAACAGUAAGUUGACAGCAAAAGCAAAUAGGCAGCUUCAAGAUCCUUUAGUAAUCAUGACAGGAAACAUCCCGACGUGGCUGACUGA` has a bound/input enrichment of 0.639 ratio.
`UUCACCACUCCUGGGUGCAUGAUUGAGGGUGAAGCAUCCACCAGCACUUCAAGGGGUCCAUAGUAUUUUUUUUUUGCUGCCUCAAAGUCCCCAAAGCCUUCGAGCAGAAGUGGCAGUAGA` has a bound/input enrichment of 1.29 ratio.

Block 3
Target: Sal-like protein 4, full length isoform B (SALL4, Homo sapiens, UniProt Q9UJQ4-2, residues 1-616)
Technique: universal PBM
Form: double-stranded DNA, one strand shown
Sample: in vitro
Concentration: not given
Notes: 8-mer, flanks averaged, mean of replicates
Reading: higher = stronger binding
Construct (chain): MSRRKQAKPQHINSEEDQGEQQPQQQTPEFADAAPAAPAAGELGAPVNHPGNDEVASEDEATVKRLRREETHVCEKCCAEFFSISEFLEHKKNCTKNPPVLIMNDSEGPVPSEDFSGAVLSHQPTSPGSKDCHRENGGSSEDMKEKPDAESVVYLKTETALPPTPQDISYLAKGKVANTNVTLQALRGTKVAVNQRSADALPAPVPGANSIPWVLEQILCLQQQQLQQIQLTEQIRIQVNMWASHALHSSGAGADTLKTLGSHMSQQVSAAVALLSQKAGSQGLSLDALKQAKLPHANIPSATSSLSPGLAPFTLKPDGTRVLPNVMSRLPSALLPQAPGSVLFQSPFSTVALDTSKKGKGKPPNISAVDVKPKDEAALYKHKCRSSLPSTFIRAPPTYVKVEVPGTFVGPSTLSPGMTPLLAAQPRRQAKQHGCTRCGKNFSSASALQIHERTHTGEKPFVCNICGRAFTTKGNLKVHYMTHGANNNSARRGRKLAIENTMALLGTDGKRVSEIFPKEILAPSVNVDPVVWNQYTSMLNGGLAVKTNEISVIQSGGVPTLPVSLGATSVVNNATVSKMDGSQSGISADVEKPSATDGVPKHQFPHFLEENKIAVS
`AGCGGGGG` has an E-score of -0.229.
With `ATGTTGCG` the E-score was 0.073.
The E-score of `CTGTATGA` is reported as 0.233.
With `GATCTATA` the E-score was 0.238.
`ACCGTAGT` gave an E-score of -0.227.
`CCTTCTAC` gave an E-score of -0.0928.
With `GGAACACA` the E-score was -0.0372.
`AAAAGAGC` gave an E-score of -0.0955.
With `GCCTCCTA` the E-score was -0.19.
For `GGAGATCC`, the E-score was -0.24.
`ATAAGTAT` gave an E-score of 0.317.
`TATGTTGA` gave an E-score of 0.338.
With `GCGCCCCA` the E-score was -0.386.
For `AGGTAAGA`, the E-score was -0.0266.
The E-score of `ACTGGCGA` is reported as -0.24.
For `GCCACCGC`, the E-score was -0.29.
`AATGCCGG` gave an E-score of -0.179.
`AGGTCGAA` has an E-score of -0.0604.
For `TCGCTTAA`, the E-score was 0.0544.
The E-score of `AAAACAGC` is reported as 0.0387.
The E-score of `CAACAGGC` is reported as -0.154.
The E-score of `CTCATCAG` is reported as 0.0134.

Block 4
Target: Centromere-binding protein 1, full length, N-terminal tag (CBF1, Saccharomyces cerevisiae, UniProt P17106, residues 1-351)
Chain of UniProt P17106 (whole entry, looked up): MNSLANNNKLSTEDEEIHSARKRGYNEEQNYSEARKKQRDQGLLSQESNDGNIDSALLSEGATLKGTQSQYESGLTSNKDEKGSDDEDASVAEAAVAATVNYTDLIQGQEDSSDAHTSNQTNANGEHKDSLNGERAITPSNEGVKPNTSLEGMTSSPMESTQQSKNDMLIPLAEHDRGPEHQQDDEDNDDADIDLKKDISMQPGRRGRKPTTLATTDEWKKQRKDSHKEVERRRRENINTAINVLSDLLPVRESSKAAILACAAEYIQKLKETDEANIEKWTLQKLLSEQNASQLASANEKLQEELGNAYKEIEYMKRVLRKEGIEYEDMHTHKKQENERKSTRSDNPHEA
Technique: protein-binding microarray
Form: double-stranded DNA, one strand shown
Sample: in vitro
Concentration: 0.8 µM
Notes: whole 60-bp probe, no competitor
Reading: higher = stronger binding
Shared flanks, not repeated: … GTCTTGATTCGCTTGACGCTGCTG
The fluorescence intensity of `CTATTATCACCGTCTCACCATATCCCACGACTATTC` is reported as 559 a.u.
For `GAAGACCCTGAACGTGACCGTCCATCATGAATTTAG`, the fluorescence intensity was 2230 a.u.
With `TGTACGAAGCTATAGCACGTGACTATAGTAGTTAGG` the fluorescence intensity was 24800 a.u.
With `CTATTATGGTATCACGACATCACCACAACAGAGTTC` the fluorescence intensity was 1120 a.u.
`CTACAGGAAAAGAAGATGGTGACATATGCTTAGTTC` has a fluorescence intensity of 569 a.u.
For `CTACTCGCATCCGGGCACGCTTTGTGAAATTCATTC`, the fluorescence intensity was 573 a.u.
With `CCTAACTACTATAGCCACATGCGATAGCTTCGTACA` the fluorescence intensity was 567 a.u.
With `GAAAATTGGAGTTCCATCACCATCAATATAGCATAG` the fluorescence intensity was 517 a.u.
With `CTATCATAGAAAAACCACGTGAAAAAAAAAAAATTC` the fluorescence intensity was 4360 a.u.
`GAATGAGTCCGCACTCACGGGACGAAGACGAAGTAG` has a fluorescence intensity of 730 a.u.
With `TGTACGAAGCTATATGTCACCATTATAGTAGTTAGG` the fluorescence intensity was 542 a.u.
With `CTATAAATTATTGCGCACGTTTTTCGGTGTGGTTTC` the fluorescence intensity was 962 a.u.
The fluorescence intensity of `GAATCCATTTCAGCTAACGTGATACAACAGGTCTAG` is reported as 952 a.u.
With `CCTAACTACTATAATCACCTTTTATAGCTTCGTACA` the fluorescence intensity was 534 a.u.
The fluorescence intensity of `CTACGTATATATAGCCACGTAAACCTCACACTATTC` is reported as 533 a.u.
The fluorescence intensity of `CTACGAACGAGGAGTGACGTGGACGCGATGAAGTTC` is reported as 516 a.u.

Block 5
Target: Histone acetyltransferase KAT6A, winged helix 2, GST fusion (KAT6A, Homo sapiens, UniProt Q92794, residues 85-181)
Technique: protein binding microarray
Form: double-stranded DNA, one strand shown
Sample: in vitro
Concentration: not given
Notes: 8-mer, flanks averaged, mean of 2 arrays, mostly near background
Reference: not given
Reading: higher = stronger binding
Residues (chain): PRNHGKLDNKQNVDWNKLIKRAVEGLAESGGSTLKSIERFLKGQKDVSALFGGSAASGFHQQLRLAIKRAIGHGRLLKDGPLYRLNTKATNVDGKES
`GGCATTCA` gave an E-score of 0.02.
The E-score of `CGGCGTAC` is reported as 0.0515.
`ACTACCGA` has an E-score of -0.0527.
`ACAACCGT` has an E-score of -0.131.
`CCGTTGTA` gave an E-score of 0.0164.
For `CGACGCTA`, the E-score was -0.0531.
`GCTGAACA` gave an E-score of 0.0831.
For `CAACTGGG`, the E-score was -0.0131.
With `GCGGCGAC` the E-score was 0.214.
`AACGCGGA` has an E-score of 0.0206.
With `ACTCTTCA` the E-score was -0.073.
The E-score of `CTCCGCCC` is reported as 0.232.
`AATGCGCA` has an E-score of 0.0723.
The E-score of `ACCGGGGA` is reported as 0.0242.
With `AAGAACGT` the E-score was -0.0745.
`CACGGCGG` has an E-score of 0.206.
`AGATCTTC` gave an E-score of 0.0154.
The E-score of `AGGCGTTG` is reported as -0.0424.
For `CACGAGCC`, the E-score was 0.0046.
`AATCCTTC` gave an E-score of -0.0946.
`CAGTCAAC` has an E-score of -0.102.
With `GACAGTCC` the E-score was -0.143.
With `ACCCTTCC` the E-score was -8.5e-05.
For `AGCGGTTC`, the E-score was -0.0923.
For `CAGCATGG`, the E-score was 0.176.

A few entries again (block 4):
With `TGTACGAAGCTATAGCACGTGACTATAGTAGTTAGG` the fluorescence intensity was 24800 a.u.
With `CTATTATGGTATCACGACATCACCACAACAGAGTTC` the fluorescence intensity was 1120 a.u.
`CTACAGGAAAAGAAGATGGTGACATATGCTTAGTTC` has a fluorescence intensity of 569 a.u.
For `CTACTCGCATCCGGGCACGCTTTGTGAAATTCATTC`, the fluorescence intensity was 573 a.u.
With `CCTAACTACTATAGCCACATGCGATAGCTTCGTACA` the fluorescence intensity was 567 a.u.
With `GAAAATTGGAGTTCCATCACCATCAATATAGCATAG` the fluorescence intensity was 517 a.u.
With `CTATCATAGAAAAACCACGTGAAAAAAAAAAAATTC` the fluorescence intensity was 4360 a.u.
